{"data": "Published values from different studies", "note": "Parts stem from different laboratories: compare values within a part only. Changes are numbered by the printed parent chain."}
{"data": "Block 1", "target": "RING finger protein unkempt homolog, zinc fingers 1-6, GST-SBP tag (UNK, Homo sapiens, UniProt Q9C0B0, residues 30-357)", "method": "RNA Bind-n-Seq", "form": "RNA", "matrix": "in vitro", "tested at": "not given", "setting": "RNA with constant flanks, human-mouse chimeric sites, ends assumed", "baseline": "input RNA pool", "direction": "higher = stronger binding", "shared flanks, not repeated": "GGGAGUUCUACAGUCCGACGAUC … CAACAGAGGAUUGAGCAUCA", "Construct (chain)": "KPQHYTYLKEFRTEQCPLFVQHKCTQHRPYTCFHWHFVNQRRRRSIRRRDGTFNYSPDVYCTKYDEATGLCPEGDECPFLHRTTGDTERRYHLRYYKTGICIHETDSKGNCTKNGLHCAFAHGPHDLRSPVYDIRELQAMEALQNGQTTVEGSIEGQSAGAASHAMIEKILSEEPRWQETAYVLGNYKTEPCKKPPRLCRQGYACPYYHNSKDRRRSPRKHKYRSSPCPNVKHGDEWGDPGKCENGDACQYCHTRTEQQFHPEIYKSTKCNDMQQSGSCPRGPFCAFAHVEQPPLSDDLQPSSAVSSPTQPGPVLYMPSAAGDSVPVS"}
{"Sequence": "CUCGGCACCGGCACGCUUUACAUCGCGGAGAGCCGCCUGUCCUGGUUAGAUGGCUCUGGAUUAGGAUUCUCACUGGAAUACCCCACCAUUAGUUUACAUGCGGUGUCCAGGGAUCCAAAC", "bound/input enrichment [ratio]": 0.327}
{"Sequence": "CACACACUCUUCUGCGGCACCCUCAUUUUGCAGGCCCGAGCCUACGUGGGACCGCACGUCCUGGCAGUGGUGACCCGCACAGGGUUCUGCACGGCAAAAGGGGGCCUGGUGAGCUCCAUC", "bound/input enrichment [ratio]": 0.096}
{"Sequence": "AAAGUGGACUAUGGCGAAUACAUGGAUAAAAACAAUGUGAGGCGGCAAGCAACAACAAUCAUAGCUGAUAACAUUAUAUUUCUGAGUGACCAGACGAAAGAAAAGGCAUAGAACGGAUGA", "bound/input enrichment [ratio]": 1.76}
{"Sequence": "AUUGUUGAAGCGAAUCCACUUUUAGAAGCCUUUGGAAAUGCAAAGACUGUUCGCAACAAUAAUAGCAGUCGAUUUGGAAAAUUUGUAGAAAUUCAUUUCAAUGAAAAGAGUUCGGUUGUU", "bound/input enrichment [ratio]": 0.32}
{"Sequence": "UUACCCGAGAACGAGGAUGAAUUGGAGAGCACCAACAGGCGCUACACCAAGAGGGACUGCAGCACUUUUCUCAGAACUAGUGAGACGGGCAUCGUGGACCAGGUCAUGGUCACUCUCAAC", "bound/input enrichment [ratio]": 0.164}
{"Sequence": "GGAAGUACAAUGAUGGAGAUUGAUGGUGACAAAGGCAAGCAGGGCGGGCCCACCUACUACAUAGACACCAAUGCCCUCCGCGUGCCCAGGGAGAAUAUGGAGGCCAUUUCACCUCUAAAG", "bound/input enrichment [ratio]": 0.219}
{"Sequence": "AAAGAGUGGAUAGAGUGUGCACAUGGAAUCGGUGGGACCCGGGCGAAAAAGGAGUGCAAGAUAGAGUUCGAUGACUUCGAAGAGUGCUUGCUUCGGUAGAAAACGAUGAGGCGAAUGCAU", "bound/input enrichment [ratio]": 0.6}
{"Sequence": "UCAUUUUUCUCUUUUCUUUCUUUCCUUUAGGAAAAGCCUAAAGAUUAGGUUGUAAGAAAAAUAGAAGCCAUGUUUCGAAGACCUGUAUUACAGGUAUUUCGUCAGUUUGUAAGACAUGAG", "bound/input enrichment [ratio]": 0.439}
{"Sequence": "GAAUCCUACUCAGGCGGAUUUUGCAACCUGAAUGCAACAGCAGCAGCAUCUUAGUCACAGUUAGGUAGUUUUGGGGCUCUGUGGCCAGGGUUUUAUUCACAUGCAGGUUUGGAAAAUGUA", "bound/input enrichment [ratio]": 2.97}
{"Sequence": "UUAAACACCAAGCUGAUGGACUCUGAUGGCCUCCAUCUCUCAGGCACGUGUGCCUUCUCUUAGUCCCUGUUUUCGGGAUGUUAUGAACAGUAUCAUGGUGGUUUGAAAGCACCAGCUUUG", "bound/input enrichment [ratio]": 0.129}
{"Sequence": "GCAAAGGAUGAUGAGGCGGCAGCUGUUGCCCUUUCCUCCCUGAUUCAUGCUUUGGAUGAGUUAAACAUGGUGGCCAUCGUCCGAUAUGCUUAUGACAAAAGAUCUAAUCCUCAAGUUGGU", "bound/input enrichment [ratio]": 0.132}
{"data": "Block 2", "target": "CCNB1, cyclin fold, Cln2 fusion (human)", "method": "yeast growth competition, sequencing", "matrix": "yeast", "setting": "weak parent motif", "baseline": "not given", "direction": "higher = stronger binding", "starting sequence": "WEE1 docking peptide (human); HKTFRKLRLFDTP"}
{"Change": "P13D", "normalised enrichment score": 0.649}
{"Change": "L9G", "normalised enrichment score": 1.02}
{"Change": "K6M", "normalised enrichment score": -0.301}
{"Change": "P13Q", "normalised enrichment score": -0.105}
{"Change": "R5L", "normalised enrichment score": 0.083}
{"Change": "H1Q", "normalised enrichment score": 0.83}
{"Change": "L9F", "normalised enrichment score": 0.309}
{"Change": "K2F", "normalised enrichment score": 0.412}
{"Change": "P13R", "normalised enrichment score": -0.891}
{"Change": "D11H", "normalised enrichment score": -0.401}
{"Change": "T3E", "normalised enrichment score": 0.274}
{"Change": "D11W", "normalised enrichment score": 0.298}
{"Change": "K6D", "normalised enrichment score": 0.688}
{"Change": "D11R", "normalised enrichment score": 0.234}
{"data": "Block 3", "target": "Ras GTPase-activating protein-binding protein 1, full length (G3BP1, Homo sapiens, UniProt Q13283)", "method": "RNA Bind-n-Seq", "form": "RNA", "matrix": "in vitro", "tested at": "200 nM", "setting": "whole 134-nt RNA, ends assumed", "added": "150 mM KCl", "baseline": "input library", "direction": "higher = stronger binding", "shared flanks, not repeated": "GGGAGUUCUACAGUCCGACGAUC … UGGAAUUCUCGGGUGUCAAGG", "sequence of UniProt Q13283 (whole entry, looked up)": "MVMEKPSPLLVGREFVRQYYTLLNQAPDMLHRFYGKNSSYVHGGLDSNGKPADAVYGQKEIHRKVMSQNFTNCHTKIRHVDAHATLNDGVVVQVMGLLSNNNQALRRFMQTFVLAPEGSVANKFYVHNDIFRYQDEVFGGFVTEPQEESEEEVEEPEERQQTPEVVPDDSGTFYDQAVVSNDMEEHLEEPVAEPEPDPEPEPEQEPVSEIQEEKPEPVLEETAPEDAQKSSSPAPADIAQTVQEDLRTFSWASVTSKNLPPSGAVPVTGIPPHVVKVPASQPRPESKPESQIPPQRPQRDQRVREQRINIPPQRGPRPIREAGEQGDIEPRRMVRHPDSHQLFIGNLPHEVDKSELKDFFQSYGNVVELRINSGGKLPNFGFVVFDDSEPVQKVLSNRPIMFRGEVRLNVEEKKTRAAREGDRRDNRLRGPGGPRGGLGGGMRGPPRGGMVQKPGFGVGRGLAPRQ"}
{"Sequence": "UCCGCGUGUGAAGUUUUUCUCGGCUGCAUCAUGGGUGCCACAUUCUUUUUGUUGUUUUCAGUGCUGCAAAAGCCCCAUAUCUGGCCAAGU", "log2 enrichment": -0.872}
{"Sequence": "ACCAUGCAGGUGGGCAUCUUUGGGAAGUGGGGCAAGGGGGGGAUAGGGAGGGGGGUAACACUUUGGGAACAGGUGCUCCCAGGUCGUUUC", "log2 enrichment": 1.34}
{"Sequence": "CUGUGCUACACAUCGUAUGUACCGAAUCGGGCCCCCCCGGGGCCCCCCCGGGCCCCCCCGGGAAAGUAUUAUGUUACGCCGUUCGGAUCU", "log2 enrichment": -1.41}
{"Sequence": "UAACUUUAGAGGAGGAUCUGAUGGAUAUGGCAGUGGACCUGGAUUUGGGGAUGGCUAUAAUGGGUAUGGAGGAGGACCUGGAGGUGGCAA", "log2 enrichment": 0.12}
{"Sequence": "CAAGUCCUGUGCUACACAUCGUAUGUACCGAAUCGGGCCGGGGCCGGGGCCGGGGAAAGUAUUAUGUUACGCCGUUCGGAUCUGCACUUC", "log2 enrichment": -0.496}
{"Sequence": "CCUCAAGUCCUGUGCUACACAUCGUAUGUACCGAAUCGGGUGGGGUGGUGGGAAAGUAUUAUGUUACGCCGUUCGGAUCUGCACUUCCAG", "log2 enrichment": 1.21}
{"Sequence": "UCAAGUCCUGUGCUACACAUCGUAUGUACCGAAUCGGGAAAGGGAGGGUUUGGGAAAGUAUUAUGUUACGCCGUUCGGAUCUGCACUUCC", "log2 enrichment": 0.918}
{"Sequence": "CAAGUCCUGUGCUACACAUCGUAUGUACCGAAUCGGGGCCCGGCCCGGGGCCCGGAAAGUAUUAUGUUACGCCGUUCGGAUCUGCACUUC", "log2 enrichment": -0.938}
{"Sequence": "UCCUGUGCUACACAUCGUAUGUACCGAAUCGGGGAAAGGGGUUUUUUUGGGGAAAGGGGAAAGUAUUAUGUUACGCCGUUCGGAUCUGCA", "log2 enrichment": 0.915}
{"data": "Single results of other studies"}
{"Molecule": "PhoQ, residues 284 288 289 292 302 303 AAQSYM", "target": "PhoP, residues 12 14 15 18 19 TQAIL (Escherichia coli, UniProt P23836)", "assay": "Sort-seq, refers to: YFP reporter", "system": "E. coli", "setting": "PhoQ-PhoP variant library, added: 10 µM Mg2+", "how to read": "baseline: high Mg2+ state, higher = stronger signaling", "quantity": "fold induction", "result": 21.1}
